# Measured values collected from several papers.
# Lines come from different studies, so protocols differ. Several values in a cell are separate wells, animals, samples, runs or records. ± marks the error that the study gave.
Structure (SMILES),test,system,setting,how to read,measurement,result
CCc1ccc(CC/C=C/c2ccc3c(c2)C(=O)CC3)cc1,,"Sprague-Dawley rat, male","oral, 450 mg/kg/day, 14 days",,Albumin,32.4 g/L
COc1cc(C(=O)NC2CCN(C)CC2)c(F)cc1Nc1ncc(C(F)(F)F)c(Oc2cccc3c2C(=O)N(C)C3)n1,,"human patients, urine","oral, 10 mg single dose, geometric mean",baseline: dose,fraction excreted in urine (0-24 h),2.04%
OCc1cn(Cc2cccc(Cl)c2)c2ccccc12,,"male F344 rat, liver","oral, 150 mg/kg/day, 2 days, scale unremarkable to marked",direction not given,liver toxicity severity score,4
O=c1ccc2ncc(=O)n3c2n1C[C@H]3CN1CCC(NCc2cc3c(cn2)OCCC3)CC1,,healthy human volunteers,"oral, 1500 mg, rifampicin cohort, together with: rifampicin 600 mg",,incidence of gastrointestinal disorders,18%
COc1ccc2nc3cc(Cl)ccc3c(Nc3cc(CN4CCCC4)c(O)c(CN4CCCC4)c3)c2n1,,"mouse, blood","intraperitoneal, 57 mg/kg",,red cell distribution width (CV),13.9%
CC(C)C[C@H](NC(=O)[C@H](CCCCN)NC(=O)OCC1c2ccccc2-c2ccccc21)C(=O)N[C@H](C(=O)N[C@@H](Cc1ccccc1)C(=O)N[C@@H](Cc1ccccc1)C(=O)N[C@@H](CCCCN)C(=O)NCC(=O)N[C@@H](Cc1ccccc1)C(=O)N[C@@H](C)C(=O)N[C@@H](Cc1c[nH]c2ccccc12)C(=O)N[C@@H](CC(N)=O)C(=O)N[C@H](C(=O)N[C@H]1CSSC[C@@H](C(=O)N[C@@H](Cc2c[nH]cn2)C(=O)N[C@@H](CCCNC(=N)N)C(=O)N[C@@H](CCCNC(=N)N)C(=O)N[C@@H](C)C(=O)N[C@@H](CC(N)=O)C(N)=O)NC(=O)[C@H](C(C)C)NC(=O)[C@H](CCCNC(=N)N)NC(=O)[C@H](C(C)C)NC(=O)CNC(=O)[C@H](CC(N)=O)NC(=O)[C@H](CCCNC(=N)N)NC(=O)[C@H](Cc2ccc(O)cc2)NC(=O)[C@H](C(C)C)NC1=O)C(C)C)C(C)C,HPLC,mouse kidney homogenate,"2560 µM, 8.00 h, 37 °C, 50 mg/mL tissue",,remaining peptide,53% and 56.3% and 55.4%
Cn1nccc1[C@]1(CNC(=O)c2ccc(F)c(F)c2-c2ccc(C(F)(F)F)cc2)NC(=O)NC1=O,,mouse,"oral, 1.0 mg/kg",,dose-normalised AUC,2 kg·h/L
O=C(O)CCCOc1ccc(F)cc1-c1cc(-c2ccccc2C(F)(F)F)n(-c2ccccc2)n1,measured: T-Cho,"Crl:CD(SD) rats, male, blood","iv, 25 µg/kg, 14 days",,blood chemistry,53.5 ± 6.4 mg/dL
C[C@]1(O)C[C@@](N)(c2ccc(-c3nc4n(c3-c3ccccc3)COc3ccncc3-4)cc2)C1,,"human, advanced or metastatic solid tumours","24 mg intermittent, phase I dose escalation",,patients with TEAE,75%
COc1cccc(Oc2ccccc2NC(=O)CNC(=O)c2cccc3ccccc23)c1,,"esterase-deficient SCID mice, male","oral, 40 mg/kg/day, 14 days, toxicity study",,blood urea nitrogen,32 mg/dL and 37 mg/dL and 35 mg/dL
COc1ccnc(C(=O)N[C@H]2COC(=O)[C@H](Cc3ccccc3)[C@@H](OC(=O)C(C)C)[C@H](C)OC2=O)c1OCOC(=O)C(C)C,,"wheat, grain","foliar, dose not given, phenyl label",,share of total radioactive residue,38 % TRR
CCCCCCCCCCCCCCCC(=O)N[C@@H](CCC(=O)NCCCC[C@H](NC(=O)[C@H](CC(=O)O)NC(=O)[C@H](CO)NC(=O)[C@@H](NC(=O)[C@H](Cc1ccccc1)NC(=O)[C@@H](NC(=O)CNC(=O)[C@H](CCC(N)=O)NC(=O)[C@H](CO)NC(=O)[C@@H](N)Cc1c[nH]cn1)[C@@H](C)O)[C@@H](C)O)C(=O)N[C@@H](CO)C(=O)N[C@@H](CCC(=O)O)C(=O)N[C@@H](Cc1ccc(O)cc1)C(=O)N[C@@H](CC(C)C)C(=O)N[C@@H](CC(=O)O)C(=O)N[C@@H](CO)C(=O)N[C@@H](CCC(=O)O)C(=O)N[C@@H](CCCNC(=N)N)C(=O)N[C@@H](C)C(=O)N[C@@H](CCCNC(=N)N)C(=O)N[C@@H](CC(=O)O)C(=O)N[C@@H](Cc1ccccc1)C(=O)N[C@H](C(=O)N[C@@H](C)C(=O)N[C@@H](Cc1c[nH]c2ccccc12)C(=O)N[C@@H](CC(C)C)C(=O)N[C@@H](CCC(=O)O)C(=O)N[C@@H](C)C(=O)NCC(=O)NCC(=O)O)C(C)C)C(=O)O,measured: Dizziness,humans CrCl 30 to 45 mL/min,"subcutaneous, 100 µg single dose",,treatment-related adverse events,0%
C[C@@H]1NC(=O)[C@H](CCCCNC(=O)CO/N=C/C(=O)NCCCC[C@@H]2NC(=O)[C@@H](Cc3ccccc3)NC(=O)[C@H](CC(=O)O)NC(=O)CNC(=O)[C@H](CCCNC(=N)N)NC2=O)NC(=O)CNC(=O)[C@@H]2CCCN2C(=O)[C@H](CCCCNC(=O)CO/N=C/C(=O)NCCCC[C@@H]2NC(=O)[C@@H](Cc3ccccc3)NC(=O)[C@H](CC(=O)O)NC(=O)CNC(=O)[C@H](CCCNC(=N)N)NC2=O)NC(=O)[C@H](CCCCNC(=O)[C@H](CCCCN)NC(=O)[C@H](Cc2ccccc2)NC(=O)CNC(=O)CN2CCCNCCNCCCNCC2)NC(=O)[C@H](CCCCNC(=O)CO/N=C/C(=O)NCCCC[C@@H]2NC(=O)[C@@H](Cc3ccccc3)NC(=O)[C@H](CC(=O)O)NC(=O)CNC(=O)[C@H](CCCNC(=N)N)NC2=O)NC(=O)CNC(=O)[C@@H]2CCCN2C(=O)[C@H](CCCCNC(=O)CO/N=C/C(=O)NCCCC[C@@H]2NC(=O)[C@@H](Cc3ccccc3)NC(=O)[C@H](CC(=O)O)NC(=O)CNC(=O)[C@H](CCCNC(=N)N)NC2=O)NC1=O [copper-64 labelled],,"normal mice, blood","intravenous, 0.74 MBq, 3 h post-injection",,tissue uptake,0.12 ± 0.01 %ID/g
S=c1oc(-c2ccccc2)nn1CN1CCN(Cc2ccccc2)CC1,,Wistar rat female,"oral, 300 mg/kg, acute toxicity OECD 423",,serum ALT,43 ± 3.2 U/L
NC(=O)[C@H]1CCN(c2ncnc(N)c2F)C[C@@H]1N1CCC[C@@H](Nc2cc(Cl)cc(C(F)(F)F)c2)C1=O,,B-cell malignancy patients,"oral, 410 mg twice daily, dose",,grade ≥3 neutropenia,0%
CC(C)(C)c1cc(-n2nc3ccccc3n2)c(O)c(C(C)(C)C)c1,exposure assessment,"human, age 21-60 years, sunscreen",,,dermal uptake,1.52 ng/kg body weight/day
CNC(=O)[C@@H](NC(=O)c1cc(OCC2(C)COC2)c(C2CC2)cn1)C(C)(C)C,,C57BL/6 mice,"oral, dose not given",,oral bioavailability,31%
CC(C)[C@@H]1NC(=O)CNC(=O)[C@H](CC(N)=O)NC(=O)[C@H](CCCNC(=N)N)NC(=O)[C@H](Cc2ccc(O)cc2)NC(=O)[C@H](C(C)C)NC(=O)[C@@H](NC(=O)[C@@H](NC(=O)[C@H](CC(N)=O)NC(=O)[C@H](Cc2c[nH]c3ccccc23)NC(=O)[C@H](C)NC(=O)[C@H](Cc2ccccc2)NC(=O)CN)C(C)C)CSSC[C@@H](C(=O)N[C@@H](Cc2cnc[nH]2)C(=O)N[C@@H](CCCNC(=N)N)C(=O)N[C@@H](CCCNC(=N)N)C(=O)N[C@@H](C)C(=O)N[C@@H](CC(N)=O)C(N)=O)NC(=O)[C@H](C(C)C)NC(=O)[C@H](CCCNC(=N)N)NC1=O,,"ICR mice, blood","intraductal mammary, 5 mg/kg, day 5",,neutrophils,17.5 ± 0.65%
CO[C@H]1C[C@@H]2CC[C@@H](C)[C@@](O)(O2)C(=O)C(=O)N2CCCC[C@H]2C(=O)O[C@H]([C@H](C)C[C@@H]2CC[C@@H](OC(=O)NCCOCCOCCOCCOCCOCCOCCOCCOCCC(=O)N3CCc4cc(Cn5nc(-c6ccc7oc(N)nc7c6)c6c(N)ncnc65)ccc4C3)[C@H](OC)C2)C[C@@H](O)[C@H](C)/C=C(\C)[C@@H](O)[C@@H](OC)C(=O)[C@H](C)C[C@H](C)/C=C/C=C/C=C/1C,,patients with advanced solid tumours,"intravenous, 6 mg weekly, any grade",,abdominal pain incidence,16.7%
Cc1ccc(F)c2cc(C(=O)N[C@@H]3CCC[C@H](N4CC[C@H](N(C)S(C)(=O)=O)C4)C3)[nH]c12,,CD1 mouse,"intravenous, 1 mg/kg",,MRT(0-inf),2.6 h
[O-][S+]1CCc2nc(N3CCC(c4ncc(Cl)cn4)CC3)nc(NC3(CO)CCC3)c21 (stereo not shown),measured: Constipation,healthy male humans,6 mg twice daily,,adverse event incidence,0%
O=C1Nc2cc3[nH]nc(-c4ccncc4)c3cc2CN1Cc1ccccc1,CTCAE v4.03,advanced solid tumour patients,"intravenous, 4.8 mg/kg, schedules 1/2",,patients with fatigue,25%
Cn1ncc(-c2nc(N[C@H]3CC[C@H](N)CC3)ncc2Cl)c1CC1CC1,measured: emesis any grade,human patients phase I,dose not given,,adverse event incidence,63%
COc1ncccc1-c1cnn2ccc(N3CCN(C(=O)OC(C)C)CC3)nc12,,"rat, CCI mechanical hyperalgesia model, plasma","oral, 3 mg/kg, 210 min",,drug concentration,400 nM
Cc1cn([C@H]2O[C@@H](CO[P@@](=O)(N[C@@H](C)C(=O)OC(C)C)Oc3ccccc3)[C@H](O)[C@H]2F)c(=O)[nH]c1=O,measured: ALT/AST elevated,human,25 mg,,patients with TEAE,0%
COc1cc2c(Oc3ccc4[nH]c(C)cc4c3F)ccnc2cc1OCC1(N)CC1,measured: grade 1 or 2 abdominal distension,paediatric high-risk refractory sarcoma,whole group,,incidence of adverse event,5.9%
O=C(Nc1ccccc1)C1CCN(C(=O)Oc2cccnc2)CC1,adverse event reporting,healthy women,"oral, 20 mg, 7 days",,subjects with dry mouth,14.3%
CC[C@H](C)[C@H](NC(=O)[C@H](Cc1ccccc1)NC(=O)[C@H](CCC(=O)O)NC(=O)[C@H](CCCNC(=N)N)NC(=O)[C@H](C)NC(=O)[C@H](C)NC(=O)[C@H](CCC(N)=O)NC(=O)[C@H](CCC(=O)O)NC(=O)[C@H](CCC(=O)O)NC(=O)[C@H](CC(C)C)NC(=O)[C@H](Cc1ccc(O)cc1)NC(=O)[C@H](CO)NC(=O)[C@H](CO)NC(=O)[C@@H](NC(=O)[C@H](CC(=O)O)NC(=O)[C@H](CO)NC(=O)[C@@H](NC(=O)[C@H](Cc1ccccc1)NC(=O)[C@@H](NC(=O)CNC(=O)[C@H](CCC(=O)O)NC(=O)[C@H](C)NC(=O)CCc1cnc[nH]1)[C@@H](C)O)[C@@H](C)O)C(C)C)C(=O)N[C@@H](C)C(=O)N[C@@H](Cc1c[nH]c2ccccc12)C(=O)N[C@@H](CC(C)C)C(=O)N[C@H](C(=O)N[C@@H](CCCNC(=N)N)C(=O)NCC(=O)N[C@@H](CCCNC(=N)N)C(=O)N[C@@H](CCCCNC(=O)COCCOCCNC(=O)COCCOCCNC(=O)CC[C@H](NC(=O)CCCCCCCCCCCCCCCCC(=O)O)C(=O)O)C(=O)NCC(=O)NCC(=O)N[C@@H](CO)C(=O)N[C@@H](CCSC)C(=O)N[C@H](C(=O)N[C@@H](CCCCNc1c(NCCCCCN(O)C(=O)CCC(=O)NCCCCCN(O)C(=O)CCC(=O)NCCCCCN(O)C(C)=O)c(=O)c1=O)C(=O)O)C(C)C)C(C)C [zirconium-89 labelled],ex vivo gamma counting,"male Sprague-Dawley rat, heart","intravenous, 1 nmol, 72 h",,tissue uptake,0.08 %ID/g and 0.078 %ID/g
[2H]C([2H])([18F])[C@]([2H])(N)C(=O)O,PET,"athymic nude mice, U-87 MG, tumor","dose not given, 60 min post-injection",,tissue uptake,1.49 ± 0.33 %ID/cc
C=CC(=O)N1CC[C@H](n2nc(C#Cc3cc(OC)cc(OC)c3)c3c(N)ncnc32)C1,,patients with advanced solid tumours,"oral, dose not given, Nausea, any grade, QD, together with: sevelamer hydrochloride",,adverse drug reaction incidence,22.7%
CN[C@H](CC(C)C)C(=O)N[C@H]1C(=O)N[C@@H](CC(N)=O)C(=O)N[C@H]2C(=O)N[C@H]3C(=O)N[C@H](C(=O)N[C@H](C(=O)O)c4cc(O)cc(O)c4-c4cc3ccc4O)[C@H](O)c3ccc(c(Cl)c3)Oc3cc2cc(c3O[C@@H]2O[C@H](CO)[C@@H](O)[C@H](O)[C@H]2O[C@H]2C[C@](C)(N)[C@H](O)[C@H](C)O2)Oc2ccc(cc2Cl)[C@H]1O,,"female rat, serum","intraperitoneal, 200 mg/kg, 7 h, together with: zileuton 4 mg/kg ip",,AUC,643 µg·h/mL
O=S(=O)(Nc1ccccc1)c1ccc(NC(=S)Nc2ccccc2)cc1,measured: RDW,"female mouse, blood","oral, 5 mg/kg daily, 14 days",,blood cell fraction,16.8%
Cn1cc(-c2nc(N[C@@H]3CCCC[C@@H]3N)c(F)c3c2C(=O)NC3)cn1,measured: gingival bleeding,patients with relapsed or refractory AML,"oral, 120 mg once daily",,hemorrhagic adverse events,25%
C[C@]1(CO)Cc2ncn(-c3ccc(C#N)c(Cl)c3)c2C(=O)O1,,human,5 mg single dose,,subjects with drug-related headache,0%
CC(C)CC(=O)OC[C@H]1O[C@@](C#N)(c2ccc3c(N)ncnn23)[C@H](O)[C@@H]1O,,rat whole blood,"5 µM, 60 min",,remaining compound,0%
Cc1ccccc1C(=O)NN=Cc1ccc(O)c(Br)c1,,"normal C3H/HeN mouse, plasma","intravenous, 1.6 mg/kg",,C0,125 ng/mL
CC(=O)c1c(C)c2cnc(Nc3ccc(C4CCN(CCS(C)(=O)=O)CC4)cn3)nc2n(C2CCCC2)c1=O,,HR+/HER2- advanced breast cancer patients,"oral, dose not given, all grades,, total",,patients with ALT increased,25.9%
